Assay results of several laboratories.
Lines come from different studies, so protocols differ. Numbers after ± are the reported error.

| Structure (SMILES) | test | system | setting | tissue uptake |
| --- | --- | --- | --- | --- |
| O=C([O-])c1cccc(CN(CCN(Cc2cn(Cc3ccccc3)nn2)Cc2cccc(C(=O)[O-])n2)Cc2cn(Cc3ccccc3)nn2)n1.[64Cu+2] |  | healthy athymic nude mice, muscle | intravenous, 1 h | 0.45 %ID/g |
| CCCC[C@H](NC(=O)CN1CCC(NC(=O)CN2CCN(CC(=O)O)CCN(CC(=O)O)CCN(CC(=O)O)CC2)CC1)C(=O)N[C@H]1CC(=O)NCCCC[C@@H](C(N)=O)NC(=O)[C@H](Cc2c[nH]c3ccccc23)NC(=O)[C@H](CCCNC(=N)N)NC(=O)[C@@H](Cc2ccccc2)NC(=O)[C@H](Cc2c[nH]cn2)NC1=O [gallium-68 labelled] |  | male C57BL/6J mice, B16-F10 tumours, testes | intravenous, 1 h, blocking study, with: 100 µg non-radioactive Ga-peptide | 0.6 ± 0.3 %ID/g |
| N=C(N)NCCC[C@H](NC(=O)[C@@H]1CSSC[C@H](NC(=O)[C@H](Cc2ccc3ccccc3c2)NC(=O)[C@H](CCCNC(=N)N)NC(=O)[C@H](CCCNC(=N)N)NC(=O)CN2CCN(CC(=O)O)CCN(CC(=O)O)CCN(CC(=O)O)CC2)C(=O)N[C@@H](Cc2ccc(O)cc2)C(=O)N[C@@H](CCCNC(N)=O)C(=O)N[C@@H](CCCCN)C(=O)N[C@H](CCCCN)C(=O)N2CCC[C@H]2C(=O)N[C@@H](Cc2ccc(O)cc2)C(=O)N[C@@H](CCCNC(=N)N)C(=O)N[C@@H](CCCNC(N)=O)C(=O)N1)C(N)=O [copper-64 labelled] | PET | tumour-bearing mice, blood | 100 µCi, 4 h | 0.35 ± 0.08 %ID/g |
| N=C(N)NCCC[C@@H]1NC(=O)[C@H](CCCCNC(=O)CON=C[C@H](F)[C@@H](O)[C@H](O)[C@H](O)CO)NC(=O)[C@@H](Cc2ccc(O)cc2)NC(=O)[C@H](CC(=O)O)NC(=O)CNC1=O [fluorine-18 labelled] |  | nude mice U-87 MG tumour, kidney | intravenous, 1 h | 3.75 ± 1.42 %ID/g |
| CCCC[C@H](NC(=O)CNC(=O)CNC(=O)CN1CCN(CC(=O)O)CCN(CC(=O)O)CCN(CC(=O)O)CC1)C(=O)N[C@H]1CC(=O)NCCCC[C@@H](C(N)=O)NC(=O)[C@H](Cc2c[nH]c3ccccc23)NC(=O)[C@H](CCCNC(=N)N)NC(=O)[C@@H](Cc2ccccc2)NC(=O)[C@H](Cc2c[nH]cn2)NC1=O [lead-203 labelled] |  | normal C57 mice, intestine | intravenous, 0.056 MBq, 4 h | 1.68 ± 0.96 %ID |
| CN1C(=O)[C@@H](Cc2ccc(O)c(I)c2)NC(=O)CNC(=O)[C@H](Cc2ccc3ccccc3c2)NC(=O)[C@H](CCCNC(=N)N)NC(=O)[C@H]1CCCNC(=O)c1ccc(CNC(=O)CN2CCN(CC(=O)O)CCN(CC(=O)O)CCN(CC(=O)O)CC2)cc1 [lutetium-177 labelled] | measured: 177Lu radioactivity | female CB-17 SCID mice, Daudi xenograft, brain | intravenous, 0.16 nmol per mouse, 1 h | 0.05 ± 0.01 %ID/g |
| CC(C)[C@H](NC(=O)[C@@H]1CCCN1C(=O)[C@H](CCCNC(=N)N)NC(=O)[C@H](CS)NC(=O)[C@H](Cc1c[nH]c2ccccc12)NC(=O)[C@H](CCCNC(=N)N)NC(=O)[C@@H](Cc1ccccc1)NC(=O)[C@H](Cc1c[nH]cn1)NC(=O)[C@H](CCC(=O)O)NC(=O)[C@H](CS)NC(=O)[C@H](CS)NC(=O)COCCOCCNC(=O)[C@@H]1CC(=O)N[C@@H](CCCNC(=N)N)C(=O)NCC(=O)N[C@@H](CC(=O)O)C(=O)N[C@H](Cc2ccc(O)cc2)C(=O)N1)C(N)=O [technetium-99m labelled] |  | nude mice, M21 melanoma xenograft, blood | intravenous, 0.037 MBq, 2 h | 1.52 ± 0.01 %ID/g |
| CCCC[C@@H]1NC(=O)[C@@H](NC(=O)[C@H](CCC(=O)O)NC(=O)CNC(=O)CN2CCN(CC(=O)O)CCN(CC(=O)O)CCN(CC(=O)O)CC2)CCCCNC(=O)C[C@@H](C(N)=O)NC(=O)[C@H](C(C)C)NC(=O)[C@@H]2CCCN2C(=O)[C@H](CCCNC(=N)N)NC(=O)CNC(=O)[C@H](Cc2c[nH]c3ccccc23)NC(=O)[C@H](CCCNC(=N)N)NC(=O)[C@@H](Cc2ccccc2)NC(=O)[C@H](Cc2c[nH]cn2)NC(=O)[C@H](CCC(=O)O)NC1=O [gallium-67 labelled] |  | C57 mice, B16/F1 flank melanoma, skin | intravenous, 0.037 MBq/mouse, 0.5 h | 1.62 ± 0.54 %ID/g |
| CC(F)C(=O)NC[C@@H]1O[C@H](C(=O)NCCCC[C@@H]2NC(=O)[C@@H](Cc3ccc(O)cc3)NC(=O)[C@H](CC(=O)O)NC(=O)CNC(=O)[C@H](CCCNC(=N)N)NC2=O)[C@H](O)[C@H](O)[C@H]1O (some centres unmarked) [fluorine-18 labelled] | small-animal PET | female athymic nude mice, U-87 MG xenograft, muscle | intravenous, 3.7 MBq, 60 min | 0.1 ± 0.02 %ID/g |
| O=C([O-])CN1CCN(CC(=O)[O-])CCN(CC(=O)[O-])CCN(CC(=O)[O-])CC1.[64Cu+2] |  | healthy athymic nude mice, lung | intravenous, 1 h | 0.89 %ID/g |
| N=C(N)NCCC[C@H](NC(=O)CON=C[C@H](F)[C@@H](O)[C@H](O)[C@H](O)CO)C(=O)NCC(=O)N[C@@H](CC(=O)O)C(=O)O [fluorine-18 labelled] |  | nude mice U-87 MG tumour, kidney | intravenous, 2 h | 0.55 ± 0.51 %ID/g |
| CCCC[C@H](NC(=O)CNC(=O)CNC(=O)CN1CCN(CC(=O)O)CCN(CC(=O)O)CC1)C(=O)N[C@H]1CC(=O)NCCCC[C@@H](C(N)=O)NC(=O)[C@H](Cc2c[nH]c3ccccc23)NC(=O)[C@H](CCCNC(=N)N)NC(=O)[C@@H](Cc2ccccc2)NC(=O)[C@H](Cc2c[nH]cn2)NC1=O [gallium-67 labelled] |  | female C57 mice, B16/F1 melanoma, lung | intravenous, 0.037 MBq, 2 h | 0.54 ± 0.04 %ID/g |
| NC12CNCCNCC(NCc3ccc(CNC(=O)CCCC(=O)NCc4ccc(-c5nncnn5)cc4)cc3)(CNCCNC1)CNCCNC2.[64Cu+2] |  | athymic nude mice SW1222 xenograft, liver | 1 h post injection, 24 h accumulation interval, with: huA33-TCO pretargeting | 1.6 ± 0.12 %ID/g |
| N=C(N)NCCC[C@@H]1NC(=O)[C@H](CCCCNC(=O)CC[C@H](NC(=O)[C@H]2O[C@@H](CNC(=O)c3ccc(F)cc3)[C@H](O)[C@@H](O)[C@H]2O)C(=O)NCCCC[C@@H]2NC(=O)[C@@H](Cc3ccc(O)cc3)NC(=O)[C@H](CC(=O)O)NC(=O)CNC(=O)[C@H](CCCNC(=N)N)NC2=O)NC(=O)[C@@H](Cc2ccc(O)cc2)NC(=O)[C@H](CC(=O)O)NC(=O)CNC1=O [fluorine-18 labelled] | small-animal PET | female athymic nude mice, U-87 MG xenograft, kidney | intravenous, 3.7 MBq, 60 min | 3.4 ± 0.58 %ID/g |
| N=C(N)NCCC[C@H](NC(=O)[C@@H]1CSSC[C@H](NC(=O)[C@H](Cc2ccc3ccccc3c2)NC(=O)[C@H](CCCNC(=N)N)NC(=O)[C@H](CCCNC(=N)N)NC(=S)Nc2ccc(C[C@H]3CN(CC(=O)O)CCN(CC(=O)O)CCN3CC(=O)O)cc2)C(=O)N[C@@H](Cc2ccc(O)cc2)C(=O)N[C@@H](CCCNC(N)=O)C(=O)N[C@@H](CCCCN)C(=O)N[C@H](CCCCN)C(=O)N2CCC[C@H]2C(=O)N[C@@H](Cc2ccc(O)cc2)C(=O)N[C@@H](CCCNC(=N)N)C(=O)N[C@@H](CCCNC(N)=O)C(=O)N1)C(N)=O [copper-64 labelled] |  | female athymic nude mice, CHO-CXCR4 tumour xenograft | intravenous, 50 µCi, 4 h | 4.55 ± 0.66 %ID/g |
| CC(F)C(=O)NCCOCCOCCOCC(=O)N[C@@H](CCC(=O)NCCCC[C@@H]1NC(=O)[C@@H](Cc2ccc(O)cc2)NC(=O)[C@H](CC(=O)O)NC(=O)CNC(=O)[C@H](CCCNC(=N)N)NC1=O)C(=O)NCCCC[C@@H]1NC(=O)[C@@H](Cc2ccc(O)cc2)NC(=O)[C@H](CC(=O)O)NC(=O)CNC(=O)[C@H](CCCNC(=N)N)NC1=O (some centres unmarked) [fluorine-18 labelled] | small-animal PET | female athymic nude mice, U-87 MG xenograft, muscle | intravenous, 3.7 MBq, 120 min | 0.15 ± 0.04 %ID/g |
| CCCC[C@H](NC(=O)CNC(=O)CNC(=O)CN1CCN(CC(=O)O)CCN(CC(=O)O)CCN(CC(=O)O)CC1)C(=O)N[C@H]1CC(=O)NCCCC[C@@H](C(N)=O)NC(=O)[C@H](Cc2c[nH]c3ccccc23)NC(=O)[C@H](CCCNC(=N)N)NC(=O)[C@@H](Cc2ccccc2)NC(=O)[C@H](Cc2c[nH]cn2)NC1=O [gallium-67 labelled] |  | female C57 mice, B16/F1 melanoma, heart | intravenous, 0.037 MBq, 0.5 h | 1.64 ± 0.18 %ID/g |
| CC(F)C(=O)NC[C@@H]1O[C@H](C(=O)N[C@@H](CCC(=O)NCCCC[C@@H]2NC(=O)[C@@H](Cc3ccc(O)cc3)NC(=O)[C@H](CC(=O)O)NC(=O)CNC(=O)[C@H](CCCNC(=N)N)NC2=O)C(=O)NCCCC[C@@H]2NC(=O)[C@@H](Cc3ccc(O)cc3)NC(=O)[C@H](CC(=O)O)NC(=O)CNC(=O)[C@H](CCCNC(=N)N)NC2=O)[C@H](O)[C@H](O)[C@H]1O (some centres unmarked) [fluorine-18 labelled] | small-animal PET | female athymic nude mice, U-87 MG xenograft, liver | intravenous, 3.7 MBq, 60 min | 0.54 ± 0.14 %ID/g |
| O=C([O-])CN1CCN(CC(=O)[O-])CC(Cc2ccc(NC(=S)NCCOCCOCCOCCOCCOCCOCCOCCNC(=O)CCCC(=O)NCc3ccc(-c4nncnn4)cc3)cc2)N(CC(=O)[O-])CC1.[64Cu+2] (centres unmarked) | PET and biodistribution | healthy athymic nude mice, kidney | 4 h | 1.2 ± 0.4 %ID/g |
| CC(C)[C@H](NC(=O)[C@@H]1CCCN1C(=O)[C@H](CCCNC(=N)N)NC(=O)[C@H](CS)NC(=O)[C@H](Cc1c[nH]c2ccccc12)NC(=O)[C@H](CCCNC(=N)N)NC(=O)[C@@H](Cc1ccccc1)NC(=O)[C@H](Cc1c[nH]cn1)NC(=O)[C@H](CCC(=O)O)NC(=O)[C@H](CS)NC(=O)[C@H](CS)NC(=O)[C@@H]1CC(=O)N[C@@H](CCCNC(=N)N)C(=O)NCC(=O)N[C@@H](CC(=O)O)C(=O)N[C@H](Cc2ccc(O)cc2)C(=O)N1)C(N)=O [technetium-99m labelled] |  | C57 mice B16/F1 melanoma female, brain | iv, 2 h, with: NDP-MSH 10 µg co-injected | 0.05 ± 0.02 %ID/g |

Repeated from above:
| Structure (SMILES) | test | system | setting | tissue uptake |
| --- | --- | --- | --- | --- |
| NC12CNCCNCC(NCc3ccc(CNC(=O)CCCC(=O)NCc4ccc(-c5nncnn5)cc4)cc3)(CNCCNC1)CNCCNC2.[64Cu+2] |  | athymic nude mice SW1222 xenograft, liver | 1 h post injection, 24 h accumulation interval, with: huA33-TCO pretargeting | 1.6 ± 0.12 %ID/g |
| N=C(N)NCCC[C@@H]1NC(=O)[C@H](CCCCNC(=O)CC[C@H](NC(=O)[C@H]2O[C@@H](CNC(=O)c3ccc(F)cc3)[C@H](O)[C@@H](O)[C@H]2O)C(=O)NCCCC[C@@H]2NC(=O)[C@@H](Cc3ccc(O)cc3)NC(=O)[C@H](CC(=O)O)NC(=O)CNC(=O)[C@H](CCCNC(=N)N)NC2=O)NC(=O)[C@@H](Cc2ccc(O)cc2)NC(=O)[C@H](CC(=O)O)NC(=O)CNC1=O [fluorine-18 labelled] | small-animal PET | female athymic nude mice, U-87 MG xenograft, kidney | intravenous, 3.7 MBq, 60 min | 3.4 ± 0.58 %ID/g |
| N=C(N)NCCC[C@H](NC(=O)[C@@H]1CSSC[C@H](NC(=O)[C@H](Cc2ccc3ccccc3c2)NC(=O)[C@H](CCCNC(=N)N)NC(=O)[C@H](CCCNC(=N)N)NC(=S)Nc2ccc(C[C@H]3CN(CC(=O)O)CCN(CC(=O)O)CCN3CC(=O)O)cc2)C(=O)N[C@@H](Cc2ccc(O)cc2)C(=O)N[C@@H](CCCNC(N)=O)C(=O)N[C@@H](CCCCN)C(=O)N[C@H](CCCCN)C(=O)N2CCC[C@H]2C(=O)N[C@@H](Cc2ccc(O)cc2)C(=O)N[C@@H](CCCNC(=N)N)C(=O)N[C@@H](CCCNC(N)=O)C(=O)N1)C(N)=O [copper-64 labelled] |  | female athymic nude mice, CHO-CXCR4 tumour xenograft | intravenous, 50 µCi, 4 h | 4.55 ± 0.66 %ID/g |
